Published values from different studies.
Each line is one published result; not all experiments were run side by side. Numbers after ± are the reported error.

Under “log2 fold change”, `Cc1ccc(/C=C/C(=O)O)cc1-c1cc2c(cc1C)C(C)(C)CCC2(C)C` is recorded as -0.04 (RNA sequencing, measured: Pdk4; rat, brain; dose not given, 24 h; baseline: vehicle).
For `Cc1cc(Nc2nc(C[C@@]3(C(=O)O)CCN(Cc4cccc(Cl)c4F)[C@H](C)C3)cc(C)c2F)[nH]n1`, “tumour growth inhibition” read 90% (mouse, IMR-32 neuroblastoma xenograft; oral, 5 mg/kg once daily).
`CC(C)[C@H](N)C(=O)N[C@@H](Cc1ccc(O)cc1)C(=O)N[C@@H](CCCCN)C(=O)N[C@H](C(=O)N[C@@H](CCCCN)C(=O)N[C@H](C(=O)N[C@@H](CCCCN)C(=O)N[C@H](C(=O)N[C@@H](CCCCN)C(=O)N[C@H](C(=O)N[C@@H](CCCCN)C(=O)N[C@H](C(=O)N[C@@H](CCCCN)C(=O)N[C@H](C(=O)N[C@@H](CCCCN)C(=O)N[C@H](C(=O)N[C@@H](CCCCN)C(=O)N[C@H](C(=O)O)[C@@H](C)O)C(C)C)[C@@H](C)O)C(C)C)[C@@H](C)O)C(C)C)[C@@H](C)O)C(C)C` gave a binding ratio of 0.2 (human IAPP fibrils; 1 h, room temperature; baseline: 1 M NaCl over PBS).
Under “share of HSV-specific CD8 response”, `CC(C)C[C@H](NC(=O)[C@H](CC(N)=O)NC(=O)[C@@H](NC(=O)[C@H](Cc1ccccc1)NC(=O)[C@H](CC(C)C)NC(=O)[C@@H]1CCCN1C(=O)[C@H](C)NC(=O)[C@@H](N)Cc1ccccc1)[C@@H](C)O)C(=O)O` is recorded as 5.24% (C57BL/6 mouse, HSV-1 infected, spleen; dose not given, 8 dpi; baseline: all HSV epitopes).
`CC[C@H](C)[C@H](NC(=O)[C@@H](NC(=O)[C@H](CC(=O)O)NC(C)=O)[C@@H](C)O)C(=O)N[C@@H](CCCNC(=N)N)C(=O)N[C@@H](CC(C)C)C(=O)N[C@@H](CC(C)C)C(=O)N[C@@H](Cc1ccccc1)C(=O)N[C@@H](CCC(N)=O)C(=O)N[C@@H](CC(C)C)C(=O)N[C@@H](CCSC)C(=O)N[C@@H](CCCNC(=N)N)C(=O)N1CCC[C@H]1C(=O)N1CCC[C@H]1C(=O)N[C@@H](CC(N)=O)C(=O)N[C@@H](CCSC)C(=O)N[C@H](C(=O)N1CCC[C@H]1C(=O)N[C@@H](C)C(=O)N[C@H](C(=O)N[C@@H](CC(N)=O)C(=O)N[C@@H](C)C(N)=O)C(C)C)[C@@H](C)O` — result for “α4β7+ CCR9+ cells”: 0% (measured: HA-41 tetramer; antigen-experienced tetramer+ CD4 T cells, healthy adults, HLA-DRB1*0101; dose not given).
Under escape latency, `CCN(CCCCOc1ccc(CCC(=O)N2CCC(Cc3ccccc3)CC2)cc1OC)Cc1ccccc1` is recorded as “decreased” (Morris water maze; APP/PS1 transgenic mouse; dose not given; baseline: untreated model).
Under “DPPH radical scavenging”, `O=C(O)/C=C/c1ccc(O)cc1` is recorded as 59.5 ± 0.4% (125 µg/mL).
For `N[C@@H](Cc1ccc(O)cc1)C(=O)N1CCC[C@H]1C(=O)NCC(=O)NCC(=O)O`, the activation energy was 77 ± 16 kJ/mol (diketopiperazine formation, Arrhenius plot, ESI-MS; 1-propanol; 70, 80, 90 °C, 0.5% acetic acid).
`CCCCCCCCCCCCCCCC(=O)N[C@@H](CCC(=O)NCCOCCOCCC(=O)NCCOCCOCCC(=O)NCCCC[C@H](NC(=O)[C@H](CC(=O)O)NC(=O)[C@H](CC(C)C)NC(=O)[C@H](Cc1ccc(O)cc1)NC(=O)[C@H](CCCCN)NC(=O)[C@H](CO)NC(=O)[C@H](Cc1ccc(O)cc1)NC(=O)[C@H](CC(=O)O)NC(=O)[C@H](CO)NC(=O)[C@@H](NC(=O)[C@H](Cc1ccccc1)NC(=O)[C@@H](NC(=O)CNC(=O)[C@H](CCC(N)=O)NC(=O)[C@@H](CO)NC(=O)[C@@H](N)Cc1c[nH]cn1)[C@@H](C)O)[C@@H](C)O)C(=O)N[C@@H](CCCNC(=N)N)C(=O)N[C@@H](CCCNC(=N)N)C(=O)N[C@@H](C)C(=O)N[C@@H](CCC(N)=O)C(=O)N[C@@H](CC(=O)O)C(=O)N[C@@H](Cc1ccccc1)C(=O)N[C@H](C(=O)N[C@@H](CCC(N)=O)C(=O)N[C@@H](Cc1c[nH]c2ccccc12)C(=O)N[C@@H](CC(C)C)C(=O)N[C@@H](CC(C)C)C(=O)N[C@@H](CC(N)=O)C(=O)N[C@H](C(=O)NCC(=O)NCC(=O)N1CCC[C@H]1C(=O)N[C@@H](CO)C(=O)N[C@@H](CO)C(=O)NCC(=O)N[C@@H](C)C(=O)N1CCC[C@H]1C(=O)N1CCC[C@H]1C(=O)N1CCC[C@H]1C(=O)N[C@@H](CO)C(N)=O)[C@@H](C)O)C(C)C)C(=O)O`: Col1α level “decreased” (C57BL/6J mouse CCl4 model, liver; dose not given).
`C[C@H](NC(=O)[C@H](CCC(N)=O)NC(=O)[C@H](C)NC(=O)[C@H](CCCCN)NC(=O)[C@H](CCC(N)=O)NC(=O)[C@H](C)NC(=O)[C@H](CCCCN)NC(=O)[C@H](CCC(N)=O)NC(=O)[C@H](C)NC(=O)[C@H](CCC(N)=O)NC(=O)[C@H](CCCCN)NC(=O)[C@H](C)NC(=O)[C@H](CCC(N)=O)NC(=O)[C@H](CCCCN)NC(=O)[C@H](C)NC(=O)[C@H](CCC(N)=O)NC(=O)[C@H](C)NC(=O)[C@H](CCCCN)NC(=O)[C@H](CCC(N)=O)NC(=O)[C@H](C)NC(=O)[C@H](CCCCN)NC(=O)[C@H](CO)NC(=O)[C@H](Cc1ccc(O)cc1)NC(=O)CNC(=O)CNC(=O)CN)C(=O)N[C@@H](CCCCN)C(=O)N[C@@H](CCC(N)=O)C(=O)N[C@@H](C)C(=O)N[C@@H](CCCCN)C(=O)N[C@@H](CCC(N)=O)C(=O)O` gave a binding ratio of 0.11 (rVλ6Wil fibrils; 1 h, room temperature, 0.05% Tween-20; baseline: 1 M NaCl over PBS).
`CC(=O)N[C@@H](Cc1c[nH]c2ccccc12)C(=O)NCC(=O)N[C@@H](C)C(=O)N[C@H]1CSCC(=O)Nc2ccc(cc2)N=Nc2ccc(c(S(=O)(=O)O)c2)-c2ccc(cc2S(=O)(=O)O)N=Nc2ccc(cc2)NC(=O)CSC[C@@H](C(=O)N[C@@H](CCCNC(=N)N)C(=O)N[C@@H](CCC(=O)O)C(=O)N[C@@H](C)C(=O)N[C@@H](CCC(N)=O)C(N)=O)NC(=O)[C@H](C)NC(=O)[C@H](C)NC(=O)[C@H](CCC(=O)O)NC(=O)[C@H](CCCNC(=N)N)NC(=O)[C@H](C)NC(=O)[C@H](C)NC(=O)[C@H](C)NC(=O)[C@H](CCC(=O)O)NC(=O)[C@H](CCCNC(=N)N)NC(=O)[C@H](C)NC(=O)[C@H](C)NC(=O)[C@H](C)NC(=O)[C@H](CCC(=O)O)NC(=O)[C@H](CCCNC(=N)N)NC(=O)[C@H](C)NC(=O)[C@H](C)NC(=O)[C@H](C)NC(=O)[C@H](CCC(=O)O)NC1=O`: “thermal relaxation half-life” 7.6 ± 0.2 min (cis-to-trans reversion, UV-Vis absorbance; 10 mM phosphate buffer; pH 7.0, 37 °C, together with: 365 nm irradiation).
`COc1ccc([N+](=O)[O-])cc1NC(=O)CCC(=O)[O][Zn][O]C(=O)CCC(=O)Nc1cc([N+](=O)[O-])ccc1OC.c1ccncc1` gave an inhibition of 65% (ABTS scavenging; 31.25 µg/mL).
For `CCOc1cncc(-c2ccc(NC(=O)C3(c4ccnc(NS(=O)(=O)C5CC5)n4)CCOCC3)nc2)n1`, the selectivity ratio was 49 (enzyme activity, inhibitor, RapidFire mass spectrometry; rat; baseline: CTPS1 over CTPS2).
The vasodilation of `CC(C)C[C@@H](NC(=O)[C@H]1CCCN1C(=O)[C@H]1CCCN1C(=O)[C@@H](CCCNC(=N)N)NC(=O)[C@@H](CCCNC(=N)N)NC(=O)[C@@H](CCCNC(=N)N)NC(=O)[C@@H](CCC(N)=O)NC(=O)[C@@H](CCCNC(=N)N)NC(=O)[C@@H](CCCNC(=N)N)NC(=O)[C@@H](CCCCN)NC(=O)[C@@H](CCCCN)NC(=O)[C@@H](CCCNC(=N)N)NC(=O)CNC(=O)[C@H](N)Cc1ccc(O)cc1)C(=O)N[C@H](CCCNC(=N)N)C(=O)N[C@H](CCCCN)C(=O)N[C@H](CCCCN)C(=O)N[C@H](CCCCN)C(=O)N[C@H](CCCCN)C(=O)N[C@H](CCCCN)C(=O)N[C@H](Cc1c[nH]cn1)C(N)=O` is reported as 12% (8-Br-cGMP induced dilation; mouse, isolated mesenteric arteries; intraperitoneal, 10 nmol, 30 min, together with: 50 µM 8-Br-cGMP).
`CC(C)C[C@H](NC(=O)[C@H](CCC(N)=O)NC(=O)[C@H](CCCNC(=N)N)NC(=O)[C@@H]1CCCN1C(=O)[C@@H](NC(=O)CNC(=O)[C@H](CC(C)C)NC(=O)[C@H](Cc1c[nH]c2ccccc12)NC(=O)[C@H](CC(=O)O)NC(=O)[C@H](CCC(N)=O)NC(=O)[C@H](CC(N)=O)NC(=O)[C@H](CCCNC(=N)N)NC(=O)[C@@H]1CCCN1C(=O)CNC(=O)[C@H](CCC(=O)O)NC(=O)[C@H](CC(C)C)NC(=O)[C@H](C)NC(=O)CNC(=O)[C@@H](NC(=O)[C@H](C)N)C(C)C)C(C)C)C(=O)O` — result for “antigen dose ratio”: 20 fold (CD8+ T cell priming, intracellular cytokine staining, measured: IFNγ; C57BL/6J Batf3-/- mouse; 10 µg; baseline: unmodified antigen over compound conjugate).
`NCCCC[C@H](NC(=O)CNC(=O)CNC(=O)[C@H](CCCCN)NC(=O)CNC(=O)CNC(=O)CNC(=O)[C@H](CCCCN)NC(=O)CNC(=O)CNC(=O)[C@H](CCCCN)NC(=O)CNC(=O)CNC(=O)CNC(=O)[C@H](CCCCN)NC(=O)CNC(=O)CNC(=O)[C@H](CCCCN)NC(=O)CNC(=O)CNC(=O)CNC(=O)[C@H](CCCCN)NC(=O)CNC(=O)CNC(=O)[C@H](CCCCN)NC(=O)[C@H](CO)NC(=O)[C@H](Cc1ccc(O)cc1)NC(=O)CNC(=O)CNC(=O)CN)C(=O)NCC(=O)O` has a binding ratio of 0.02 (rVλ6Wil fibrils; 1 h, room temperature, 0.05% Tween-20; baseline: 1 M NaCl over PBS).
For `COc1ccc2c(c1)C(C)(C)C(/C=C/C1=C(Oc3ccc(C(=O)NCCCCOc4cc(CN(Cc5ccccn5)Cc5ccccn5)cc(CN(Cc5ccccn5)Cc5ccccn5)c4)cc3)C(=C/C=C3/N(CCCCS(=O)(=O)[O-])c4ccc(OC)cc4C3(C)C)CCC1)=[N+]2CCCCS(=O)(=O)[O-].O=[N+]([O-])O.O=[N+]([O-])[O-].O=[N+]([O-])[O-].O=[N+]([O-])[O-].[Zn+2].[Zn+2]`, the signal-to-background ratio was 1.07 ± 0.11 (photoacoustic imaging; BALB/c mouse LPS-induced sterile myositis, inflamed muscle; intravenous, dose not given, 12 h; baseline: post- over pre-injection).

Excerpt of the above:
Under “DPPH radical scavenging”, `O=C(O)/C=C/c1ccc(O)cc1` is recorded as 59.5 ± 0.4% (125 µg/mL).
